Experimental data pooled from the literature.
A part holds a random share of what one study measured.

Set 1 — target: UBE2S UBC core domain (UniProt Q16763); technique: yeast two-hybrid; sample: yeast; notes: mostly zero background; baseline: not given; direction: higher = stronger interaction
B1: RNF152 RING domain (UniProt Q8N8N0); chain ETLSQDSLLECQICFNYYSPRRRPKLLDCKHTCCSVCLQQMRTSQKDVRCPWCRGVTKLPPGFS
B2: RNF166 RING domain (UniProt Q96A37); chain GDSGLEAQYTCPICLEVYHRPVAIGSCGHTFCGECLQPCLQVPSPLCPLCRLPFDPKKVDK
B3: ANAPC11 RING domain (UniProt Q9NYG5); chain GICRMAFNGCCPDCKVPGDDCPLVWGQCSHCFHMHCILKWLHAQQVQQHCPMCRQEWKFKE
B4: DEF8 RING domain (UniProt Q6ZN54); chain AGRLGCSLTEIHTLFAKHIKLDCERCQAKGFVCELCREGDVLFPFDSHTSVCADCSAVFHRDCYYDNSTTCPKCARLSLRK
B5: RLIM RING domain (UniProt Q9NVW2); chain SFGENDALKTCSVCITEYTEGNKLRKLPCSHEYHVHCIDRWLSENSTCPICRRAVLASGNRE
B6: MYCBP2 RING domain (UniProt O75592); chain TSLKQDADDMCMICFTEALSAAPAIQLDCSHIFHLQCCRRVLENRWLGPRITFGFISCPICKNKINHIVLKD
B7: RNF187 RING domain (UniProt Q5TA31); chain ALPAGPAEAACALCQRAPREPVRADCGHRFCRACVVRFWAEEDGPFPCPECADDCWQRAVEP
B8: MKRN2 RING domain (UniProt Q9H000); chain FAFQASQDKVCSICMEVILEKASASERRFGILSNCNHTYCLSCIRQWRCAKQFENPIIKSCPECRVISEFVIPSV
B9: TRIM60 RING domain (UniProt Q495X7); chain ALVNLQEESSCPICLEYLKDPVTINCGHNFCRSCLSVSWKDLDDTFPCPVCRFCFPYKSFRR
B10: RNF31 RING domain (UniProt Q96EP0); chain AFLRRLLAQECAVCGWALPHNRMQALTSCECTICPDCFRQHFTIALKEKHITDMVCPACGRPDLTDDTQLL
B11: MEX3B RING domain (UniProt Q6ZN04); chain SGLRRKGSRDCSVCFESEVIAALVPCGHNLFCMECANRICEKSEPECPVCHTAVTQAIRIF
Target sequence (chain): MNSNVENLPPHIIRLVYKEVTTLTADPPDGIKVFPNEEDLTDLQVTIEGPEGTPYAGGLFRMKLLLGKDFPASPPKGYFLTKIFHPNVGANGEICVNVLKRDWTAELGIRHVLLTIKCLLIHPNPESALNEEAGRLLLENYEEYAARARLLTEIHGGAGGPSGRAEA
`PEELAVNNDDCAICWDSMQAARKLPCGHLFHNSCLRSWLEQDTSCPTCRMSLNIADNNR (AMFR RING domain (UniProt Q9UKV5))` — result for “lacZ reporter activity”: 0.
For `B1 (RNF152 RING domain)`, “lacZ reporter activity” read 0.
For `B2 (RNF166 RING domain)`, “lacZ reporter activity” read 0.
`RYRQMEERITCPICIDSHIRLVFQCGHGACAPCGSALSACPICRQPIRDRIQIF (MIB2 RING domain (UniProt Q96AX9))` — result for “lacZ reporter activity”: 0.
`B3 (ANAPC11 RING domain)`: “lacZ reporter activity” 0.
`B4 (DEF8 RING domain)` — result for “lacZ reporter activity”: 0.
`B5 (RLIM RING domain)`: “lacZ reporter activity” 0.
`B6 (MYCBP2 RING domain)` — result for “lacZ reporter activity”: 0.
`B7 (RNF187 RING domain)` — result for “lacZ reporter activity”: 0.
For `B8 (MKRN2 RING domain)`, “lacZ reporter activity” read 0.
For `B9 (TRIM60 RING domain)`, “lacZ reporter activity” read 0.
`LDAASGHPLVCPLCHGQYERPCLLDCFHDFCTGCLRGRATDGRLSCPLCQHQTLVKGPSG (Rnf207 RING domain (UniProt Q3V3A7))` — result for “lacZ reporter activity”: 0.
Under “lacZ reporter activity”, `B10 (RNF31 RING domain)` is recorded as 0.
For `B11 (MEX3B RING domain)`, “lacZ reporter activity” read 0.

Set 2 — technique: RNA Bind-n-Seq; molecule type: RNA; sample: in vitro; tested at: not given; baseline: input RNA pool; direction: higher = stronger binding
Target: RING finger protein unkempt homolog, zinc fingers 1-6, GST-SBP tag (UNK, Homo sapiens, UniProt Q9C0B0, residues 30-357)
Notes: RNA with constant flanks, human-mouse chimeric sites, ends assumed
Target sequence (chain): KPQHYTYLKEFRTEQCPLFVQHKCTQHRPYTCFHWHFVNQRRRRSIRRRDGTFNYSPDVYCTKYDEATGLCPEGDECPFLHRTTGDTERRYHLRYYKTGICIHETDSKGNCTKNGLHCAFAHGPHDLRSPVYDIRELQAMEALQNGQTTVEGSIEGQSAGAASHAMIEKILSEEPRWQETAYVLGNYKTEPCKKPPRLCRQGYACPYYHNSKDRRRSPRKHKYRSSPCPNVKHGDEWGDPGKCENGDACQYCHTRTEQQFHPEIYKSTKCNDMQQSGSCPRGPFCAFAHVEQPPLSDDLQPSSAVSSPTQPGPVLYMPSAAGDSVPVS
With `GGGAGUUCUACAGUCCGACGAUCCCAAUUGUGGAGCAGUACUUGAAGACAAAGAAAAAUUCUAAUAAUUUAAUCAUCAAGUACAUUAGCUGCCGCCUGCUGACACUCAUCGUUAUACUGUUGGCAUGUAUCUACCUGGGCUAUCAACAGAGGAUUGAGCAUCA` the bound/input enrichment was 0.323 ratio.
`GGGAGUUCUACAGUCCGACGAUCAAAGAGAAACUAAAGCAAACUGAUUGAAAGAGGAUUGGCAAAGAGAAUUUCAUAGAGAAACUAGGAUUUAUUAGCAAAACAUGAGUUUAUUCCAGAGCGUCUCAGAAACCCCAGCCAAACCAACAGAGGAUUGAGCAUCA` gave a bound/input enrichment of 7.34 ratio.
`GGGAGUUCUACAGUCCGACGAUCGGAUCUUUGGGACUGUUUUACUUAAUUGGUCAUUGAUAGCUUAACAAACAUGGAGAUAAGAUUAGAAAUCUUGACAUCAACAGGUAUUAAGCAGAAAAAACCCUGGCCACGUGUCUCCUGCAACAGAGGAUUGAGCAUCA` has a bound/input enrichment of 0.226 ratio.
With `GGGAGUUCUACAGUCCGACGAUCGACAGUGAAGGCCCACUGUGUGAAUUGCUUUUUUUCUUCCUGACUGCAAUCUUCCAGGCAAUAGCUGAAGAAGAGGAGGAAGUAGCCAAAGAGCAGAUAACUGAUGCUGACACCAAAGAUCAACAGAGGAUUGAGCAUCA` the bound/input enrichment was 0.0669 ratio.
With `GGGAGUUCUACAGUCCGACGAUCGAUCCACAGUGGUCUGAGGAGCAACUCAUUGCUGCAAAAUUCUGUUUUGCUGGCCUUGUUAUAGGGCAGACUGAAGUGGAUAUCAUGAGUCAUGCCACACAAGCUAUUUUUGAAAUUCUGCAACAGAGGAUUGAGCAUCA` the bound/input enrichment was 0.209 ratio.
For `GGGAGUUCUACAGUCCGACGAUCUGUGCAUAUGAUGCUUGAGAUGGUUUUUGCAAAAGCAGAAAUCGCUGCAAGGUAAUCACAAUAGAUACAAGCGGUAUUUUAAACCUUUGAAAGGAAUGGAUGUAACUGUACCUUGGUACACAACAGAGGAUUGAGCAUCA`, the bound/input enrichment was 0.157 ratio.
`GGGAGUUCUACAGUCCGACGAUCGUGACUGGUGUUAAGAUUUACCCUCAGCAAAGAAGUGCAGUAGUCACAAUAAUCCCUUCUGUGGUGAGUGCCAGUCAGAUUGUGGAGCUGGUCCCAGACCUCAGUUUAGACAUGGGAACUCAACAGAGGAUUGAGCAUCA` gave a bound/input enrichment of 0.273 ratio.
With `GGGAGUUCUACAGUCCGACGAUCCAGCGCCGAGGCCGCGGUUUCCCCCUGGGUGUGCUGAGCAGCAGCCAUGGGCAUCAAAUUUUUAGAAGUUAUUAAACCAUUCUGUGCAGUUCUACCAGAAAUUCAGAAACCGGAAAGGAACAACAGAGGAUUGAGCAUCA` the bound/input enrichment was 5.73 ratio.
For `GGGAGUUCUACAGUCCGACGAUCCAGCCUCAGAGCCCAGACUUCCUGGAUAUUACCAACCCUAAAGCGGUAUUAGAAAAUGCAUUGAGAAACUUCGCCUGUCUGACCACCGGGGAUGUGAUUGCUAUCAACUACAAUGAGAAGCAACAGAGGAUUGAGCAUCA`, the bound/input enrichment was 0.45 ratio.
For `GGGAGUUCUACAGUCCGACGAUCGUGACUGGUGUUAAGAUUUCCCCUCAGCAAAGAAGUGUAGCAGUGACCAUAAUUCCAUCUGUGGUGAGUGCCAGUCAGAUUGUGGAGCUGGUCCCAGACCUCAGUUUAGAUACUGGGACUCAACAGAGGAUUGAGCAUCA`, the bound/input enrichment was 0.414 ratio.
With `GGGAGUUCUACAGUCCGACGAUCGAUCAUGAACCACCAUCAGAAAUGAAGGAUGAGACUACCAAGACGAGCAAAACAGCUGCGCUACAGAAAAGUAAACUUAACCUUGCAGAGUUCCUUAAUGAAGAUACAAGUUAAGAGAGCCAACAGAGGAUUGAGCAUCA` the bound/input enrichment was 0.131 ratio.

Set 3 — technique: aptamer microarray, sandwich; molecule type: DNA with 2'F-ANA; sample: in vitro; tested at: 200 nM; with: Cy3 exosite-II aptamer, 400 nM; direction: higher = stronger binding; sequence: GGTTGGTGTGGTTGG
Target: Prothrombin, mature alpha-thrombin (F2, Homo sapiens, UniProt P00734)
Notes: whole 15-mer aptamer, many near background
`2'F-ANA at 5 10 11` — result for “mean fluorescence intensity”: 45.9 a.u.
`2'F-ANA at 1 3 4 8 9 10 12 15`: “mean fluorescence intensity” 78.9 a.u.
For `2'F-ANA at 3 6 7 8 11 13 14`, “mean fluorescence intensity” read 568 a.u.
`2'F-ANA at 1 2 3 4 5 9 11 12`: “mean fluorescence intensity” 97.5 a.u.
For `2'F-ANA at 2 4 9 11 13 14`, “mean fluorescence intensity” read 79.8 a.u.
For `2'F-ANA at 2 4 5 6 8 9 10 11 14 15`, “mean fluorescence intensity” read 77.9 a.u.
`2'F-ANA at 1 2 5 7 10 11 14 15`: “mean fluorescence intensity” 69.6 a.u.
`2'F-ANA at 4 5 7 13 15`: “mean fluorescence intensity” 52.2 a.u.
Under “mean fluorescence intensity”, `2'F-ANA at 1 2 4 5 6 9 11 12 13 15` is recorded as 65.9 a.u.
Under “mean fluorescence intensity”, `2'F-ANA at 1 3 5 8 13 14 15` is recorded as 45.3 a.u.
Under “mean fluorescence intensity”, `2'F-ANA at 1 2 3 7 8 9 10 11 14 15` is recorded as 55.2 a.u.
`2'F-ANA at 1 2 4 5 6 7 9 10 13`: “mean fluorescence intensity” 49.3 a.u.
`2'F-ANA at 1 3 8 12 13` — result for “mean fluorescence intensity”: 539 a.u.
`2'F-ANA at 1 3 6 9 10 14 15`: “mean fluorescence intensity” 59.8 a.u.
For `2'F-ANA at 1 2 4 6 7 8 9 11 12 13 15`, “mean fluorescence intensity” read 140 a.u.
Under “mean fluorescence intensity”, `2'F-ANA at 2 6 9 10 11 12 14` is recorded as 139 a.u.
For `2'F-ANA at 1 2 3 4 5 6 8 9 13`, “mean fluorescence intensity” read 63.5 a.u.
`2'F-ANA at 2 5 7 9 12 14` — result for “mean fluorescence intensity”: 47 a.u.
`2'F-ANA at 1 2 6 7 10 12`: “mean fluorescence intensity” 65.1 a.u.
For `2'F-ANA at 1 5 9 11 12 13 15`, “mean fluorescence intensity” read 67.6 a.u.
Under “mean fluorescence intensity”, `2'F-ANA at 3 5 6 8 10` is recorded as 51.7 a.u.
`2'F-ANA at 2 5 7 9 10 12 13` — result for “mean fluorescence intensity”: 50.3 a.u.
`2'F-ANA at 3 4 5 9 14` — result for “mean fluorescence intensity”: 75.7 a.u.

Set 4 — technique: protein binding microarray; molecule type: double-stranded DNA, one strand shown; sample: in vitro; tested at: not given; baseline: not given; direction: higher = stronger binding
Target: Histone acetyltransferase KAT6A, winged helix 1, GST fusion (KAT6A, Homo sapiens, UniProt Q92794, residues 1-85)
Notes: 8-mer, flanks averaged, mean of 2 arrays, mostly near background
Residues (chain): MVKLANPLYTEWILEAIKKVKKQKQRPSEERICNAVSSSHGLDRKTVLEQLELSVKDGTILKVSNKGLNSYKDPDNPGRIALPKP
`GCAGACAA` gave an E-score of -0.232.
`CCCGCGAA` has an E-score of 0.277.
`ATTGAGGG` has an E-score of -0.0504.
`CTGACGCC` has an E-score of 0.15.
For `CTGGCATA`, the E-score was -0.176.
`AACTTTGT` gave an E-score of -0.0444.
For `GATGCTAA`, the E-score was -0.00441.
For `ATTATGTG`, the E-score was -0.0877.
`ACGAATAC` has an E-score of -0.296.
`GGGATGTA` has an E-score of 0.0488.
`ATCTCCAG` gave an E-score of -0.269.
`CTTAGCTA` gave an E-score of -0.167.
`CTCTACTC` gave an E-score of -0.0795.
With `AGACTCGA` the E-score was -0.0184.
With `ACTACCCG` the E-score was 0.207.
For `CAGATGCG`, the E-score was -0.0182.
The E-score of `TAAATCGA` is reported as -0.0673.
The E-score of `AACTCAAC` is reported as -0.255.
The E-score of `TCTGAGAA` is reported as -0.184.

A few entries again (set 3):
`2'F-ANA at 1 2 5 7 10 11 14 15`: “mean fluorescence intensity” 69.6 a.u.
`2'F-ANA at 4 5 7 13 15`: “mean fluorescence intensity” 52.2 a.u.
Under “mean fluorescence intensity”, `2'F-ANA at 1 2 4 5 6 9 11 12 13 15` is recorded as 65.9 a.u.
Under “mean fluorescence intensity”, `2'F-ANA at 1 3 5 8 13 14 15` is recorded as 45.3 a.u.
Under “mean fluorescence intensity”, `2'F-ANA at 1 2 3 7 8 9 10 11 14 15` is recorded as 55.2 a.u.
`2'F-ANA at 1 2 4 5 6 7 9 10 13`: “mean fluorescence intensity” 49.3 a.u.
